Measurements of several laboratories.
Lines come from different studies, so protocols differ. Values joined by “and” are separate records of one study, mostly repeats; a detail may differ. Numbers after ± are the reported error.
UCHL1: Ubiquitin carboxyl-terminal hydrolase isozyme L1 (UCHL1, Homo sapiens, UniProt P09936)
Voltage-dependent P/Q-type calcium channel subunit alpha-1A: Voltage-dependent P/Q-type calcium channel subunit alpha-1A (Homo sapiens, UniProt O00555)
ADRA2C: Alpha-2C adrenergic receptor (ADRA2C, Homo sapiens, UniProt P18825)
T1: G-quadruplex DNA (Homo sapiens); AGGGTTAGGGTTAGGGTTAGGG

Compound	tested on	assay	system	conditions	how to read	measurement	result
Oc1ccc([C@@H]2c3c(O)cc(O)cc3[C@@H]3c4c(cc(O)c5c4[C@@H]2[C@H](c2ccc(O)cc2)[C@H]5c2cc(O)cc4c2[C@@H](c2cc(O)cc(O)c2)[C@H](c2ccc(O)cc2)O4)O[C@H]3c2ccc(O)cc2)cc1	Alpha-amylase 1A (AMY1A, Homo sapiens, UniProt P0DUB6)	enzyme activity		20 µM		Vmax	317 ± 100 µmol/min
Cn1ncc(S(=O)(=O)NCc2ccc(S(=O)(=O)NC3CC3)cc2)c1C(=O)O	malate dehydrogenase	enzyme activity, inhibitor		200 µM, pH 7.0, 1% DMSO, aggregation counter-screen		remaining activity	128%
Nc1ncnc2c1ncn2[C@@H]1O[C@H](CSCC[C@H](N)C(=O)O)[C@@H](O)[C@H]1O	O-methyltransferase (Sorghum bicolor, UniProt A0A1B6PFV1)			concentration not given, with: RSV+		ΔH of binding	-4.07 ± 0.137 kcal/mol
Oc1noc2cc(Cl)ccc12	D-amino-acid oxidase (Rattus norvegicus, UniProt O35078)	blocker, in vitro autoradiography	rat brain sections, cerebellum, pons	10 µM, with: [11C] radiotracer	baseline: no pretreatment	radioactivity reduction	> 80%
Cc1cc(C(=O)CCl)c(C)n1-c1ccc(Cl)cc1	UCHL1	covalent, intact protein LC-MS		12.5 µM		labelling	22.6%
CC1(C)CC2(C)OC(=O)NC2(C)c2ccccc21 (stereo not shown)	Leucine-rich repeat serine/threonine-protein kinase 2, WD40 domain (LRRK2, Homo sapiens, UniProt Q5S007)	binding, affinity selection mass spectrometry			baseline: other proteins in batch	fold enrichment	1.11
COC(=O)c1cn(C)c2ccc(-c3cccnc3)cc12	Nuclear receptor subfamily 1 group I member 3 (Homo sapiens, UniProt Q14994)	reporter gene, Gal4 hybrid reporter		10 µM	baseline: vehicle	activation	1.01 fold
N#CC(=Cc1ccc(F)c([N+](=O)[O-])c1)C(=O)Nc1ccc(F)cc1	UCHL1	covalent, intact protein LC-MS		12.5 µM		labelling	43.8%
NC(=O)C[C@H](N)C(=O)O	L-asparaginase Trichosporon asahii	substrate, Nesslerization		pH 7.5, 35 °C		Km	16.6 µM
CC(=O)n1cc([C@H]2C=C(C(=O)N3CCN(Cc4ccc5c(c4)OCO5)CC3)O[C@@H](OCc3ccc(CO)cc3)C2)c2ccccc21	Trypanosoma cruzi	reporter translation, Renilla luciferase mRNA translation	cell-free extract	40 µM	baseline: DMSO	inhibition	47.5%
Cc1c(CC(=O)NCCc2cccc(F)c2)c(=O)oc2cc(O)cc(O)c12	B4GALT1 (Homo sapiens, UniProt P15291)	enzyme activity, inhibitor, UDP-Glo		100 µM	lower means stronger inhibition	luminescence	48400 a.u.
O=C(COP(=O)(O)O)[C@@H](O)[C@H](O)[C@H](O)COP(=O)(O)O	Phosphoglycerate mutase 1 (Homo sapiens, UniProt P18669)	thermal proteome profiling, item: PGAM1	HepG2 cell lysate	concentration not given, 57 over 37 °C, mean	baseline: compound over control	thermal stability ratio	1.94
CCN(CCO)CCCC(C)Nc1ccnc2cc(Cl)ccc12 (stereo not shown)	SCN5A (Homo sapiens, UniProt Q14524)	sodium current		100 µM		inactivation V1/2	-88.3 ± 4.6 mV
O=c1nc(SCc2cc(F)cc(C(F)(F)F)c2)nc(SCc2ccc3nc(Cl)ccc3c2)[nH]1	TOP2A (Homo sapiens, UniProt P11388)	decatenation		125 µM, replicate 1		decatenated DNA	0%
CSCCC(=O)N(C)CC1CCCN(CCc2cccc(C(F)(F)F)c2)C1 (stereo not shown)	Trypanosoma cruzi	reporter translation, Renilla luciferase mRNA translation	cell-free extract	40 µM	baseline: DMSO	inhibition	-2.9%
CNCC[C@H](Oc1cccc2ccccc12)c1cccs1	Voltage-dependent P/Q-type calcium channel subunit alpha-1A	ion current, antagonist	HEK293	3 µM		inhibition	13%
O=C(O)C1CCCNC1 (stereo not shown)	SLC6A6 (Homo sapiens, UniProt P31641, Y138A)	binding, microscale thermophoresis		125 µM, room temperature, with: 50 nM labelled protein	higher = more binding	normalised MST signal	0.969
Nc1c(Br)cc(Br)cc1CN[C@H]1CC[C@H](O)CC1	Voltage-dependent P/Q-type calcium channel subunit alpha-1A	ion current, antagonist	HEK293	3 µM		inhibition	36%
COc1cccc2c(Nc3ccc4[nH]c(C(=O)N/N=C/c5ccc(SC)cc5)cc4c3)cc(C)nc12	Vitamin D3 receptor (VDR, Homo sapiens, UniProt P11473)	reporter gene, Gal4 hybrid reporter		3 µM	baseline: vehicle	activation	1.12 fold
C#CC(CC1CCC1)NS(=O)(=O)c1cccc(Cl)c1O (stereo not shown)	malate dehydrogenase	enzyme activity, inhibitor		200 µM, pH 7.0, 1% DMSO, aggregation counter-screen		remaining activity	106%
COc1cc(NC(=O)c2cscn2)ccc1/N=N/c1ccccc1Cl	Metabotropic glutamate receptor 6 (Homo sapiens, UniProt O15303)	positive allosteric modulator, IP accumulation	HEK293	30 µM, in the dark, with: low-dose orthosteric agonist		activation	45.3%
O=C(O)C1=CCNCC1	BEST1 (Homo sapiens, UniProt O76090)	whole-cell patch clamp	HEK293 transiently expressing channel	concentration not given, membrane potential 80 mV		current density	39.1 pA/pF and 115 pA/pF and 54.9 pA/pF and 60.7 pA/pF and 112 pA/pF

Compound	tested on	assay	system	conditions	how to read	measurement	result
C=CC(=O)N1CCC(COCC(=O)N2CCN(c3nc(-c4cnc(N)nc4C(F)F)nc(N4CCOC[C@@H]4C)n3)CC2)CC1	CDK13 (Homo sapiens, UniProt Q14004)	KINOMEscan		1 µM	baseline: DMSO control	remaining binding	96%
CN(C)C(=O)C(CCN1CCC(O)(c2ccc(Cl)cc2)CC1)(c1ccccc1)c1ccccc1	Calcium-activated potassium channel subunit alpha-1, with LRRC26 γ1 subunit (KCNMA1, Homo sapiens, UniProt Q12791)	BK current, inside-out patch clamp	excised membrane patch	0.3 µM, γ1 subunit coexpressed, with: nominally 0 Ca2+ cytosolic		effective gating valence	1.23 elementary charges
CC(C)COc1ccc(CNC(=O)N(Cc2ccc(F)cc2)C2CCN(C)CC2)cc1	Voltage-dependent P/Q-type calcium channel subunit alpha-1A	ion current, antagonist	HEK293	10 µM		inhibition	89%
CO[C@@H]1O[C@@H](C)[C@@H](O)[C@@H](O)[C@@H]1O	fleA (Aspergillus fumigatus, UniProt Q4WW81)	ITC				ΔG	-25.1 kJ/mol
Cn1cc(NC(=O)CCl)c(C(=O)NC2CCC2)n1	UCHL1	covalent, intact protein LC-MS		12.5 µM		labelling	15.9%
C#CCCC1(CC[C@H](NC(=O)NCCCCCCNC(=O)NCCNC(=O)COc2cccc([C@@H](CCc3ccc(OC)c(OC)c3)OC(=O)[C@@H]3CCCCN3C(=O)C(=O)C(C)(C)CC)c2)C(N)=O)N=N1.O=C(O)C(F)(F)F	FKBP1A (Homo sapiens, UniProt P62942)	photoaffinity labeling, in-gel fluorescence, item: Alexa Fluor 647 click label		0.4 µM, UV irradiation 365 nm	higher = more labeling	probe labeling fluorescence	16900 a.u.
Nc1ncnc2c1ncn2[C@@H]1O[C@H](COP(=O)(O)OP(=O)(O)O)[C@@H](O)[C@H]1O	GUK1 (Homo sapiens, UniProt Q16774)	ITC		molar ratio 3.736		ΔH	-0.0961 kcal/mol
CC1=C[C@H](O/C=C2/C(=O)O[C@@H]3c4ccccc4C[C@H]23)OC1=O (racemic)	D14, with SMXL7 (Arabidopsis thaliana, UniProt Q9SQR3)	complex formation with SMXL7, agonist, TR-FRET		50 µM, 300 min, unit not given, with: Arabidopsis SMXL7, D14-mEGFP 100 nM	baseline: control	TR-FRET signal	1.13
Nc1nc(SCc2ccc(Cl)cc2)nn1S(=O)(=O)c1ccc(Br)cc1	Lysophospholipase-like protein 1 (Mus musculus, UniProt Q3UFF7)	enzyme activity, activator, gel-based ABPP	purified protein	concentration not given, with: FP-rhodamine	baseline: DMSO	probe labeling increase	2.3 fold
CNC(=O)[C@H](CNC(=O)Cn1[nH]c(=O)c2ccccc2c1=O)NC(=O)c1cnc(C)cn1	TNKS (Homo sapiens, UniProt O95271)	enzyme activity, inhibitor				ligand efficiency	0.42
O=C(NC1CCC1)c1ccc2nc(-c3cccc(NS(=O)(=O)NCCN4CCCCC4)c3)cn2c1	PIK3CA (Homo sapiens, UniProt P42336, I800L)	enzyme activity		10 µM		remaining activity	81%
CN[C@H]1CC[C@@H](c2ccc(Cl)c(Cl)c2)c2ccccc21	Voltage-dependent P/Q-type calcium channel subunit alpha-1A	ion current, antagonist	HEK293	10 µM		inhibition	94%
Cc1cc(Oc2ncccc2CN2CCN(c3ccccc3)CC2)ccc1-c1c(C)c(=O)[nH]c(=O)n1C	ADRA2C	binding, radioligand binding		with: [3H]rauwolscine	baseline: Ki alpha2B over Ki alpha2C	selectivity ratio	8
Nc1ncnc2c1ncn2[C@@H]1O[C@H](COP(=O)(O)CP(=O)(O)OP(=O)(O)O)[C@@H](O)[C@H]1O	P2X purinoceptor 1 (P2RX1, Homo sapiens, UniProt P51575)	saturation binding	HEK293	13 nM		specific binding	3410 CCPM and 2050 CCPM and 2970 CCPM and 3070 CCPM and 1130 CCPM
CCCCn1/c(=C/C=C/C2=[N+](CCC[N+](C)(C)C)c3ccc(Br)cc3C2(C)C)c2cccc3cccc1c32	T1, G-quadruplex DNA (Homo sapiens)	CD titration		KCl 50 mM, strong ICD		binding	binds
Nc1ncnc2c1ncn2[C@@H]1O[C@H](COP(=O)(O)OP(=O)(O)OP(=O)(O)O)[C@@H](O)[C@H]1O	P2X purinoceptor 7 (P2rx7, Rattus norvegicus, UniProt Q64663, Q143A)	ion current, agonist, two-electrode voltage clamp	Xenopus laevis oocytes	55 µM	baseline: highest concentration response	normalized current	0.232 and 0.273 and 0.144
O=C(c1cc(=O)[nH]c2ccc([N+](=O)[O-])cc12)N1CCSSCC1	UCHL1	covalent, intact protein LC-MS		12.5 µM		labelling	9.36%
COc1ccc(Cl)cc1N1CCN(Cc2cccnc2Oc2ccc(-c3c(C)c(=O)[nH]c(=O)n3C)c(C)c2)CC1	ADRA2C	binding, radioligand binding		with: [3H]rauwolscine	baseline: Ki alpha2B over Ki alpha2C	selectivity ratio	2
N#Cc1c(Br)nc(-c2cccc([N+](=O)[O-])c2)c(C#N)c1N	UCHL1	covalent, intact protein LC-MS		12.5 µM		labelling	11.9%
COc1ccc2cc(CNC(=O)C3(C(=O)O)CC=CC3)ccc2c1	malate dehydrogenase	enzyme activity, inhibitor		200 µM, pH 7.0, 1% DMSO, aggregation counter-screen		remaining activity	95%
O=C1Nc2c(ccc(Cl)c2Cl)C1=NO	KCNN4/CALM1 (Homo sapiens, UniProt O15554+P0DP23, R287A)	ion current, activator, whole-cell patch clamp		R287A mutant		Hill coefficient	1.5

A few entries again:
Compound	tested on	assay	system	conditions	how to read	measurement	result
O=c1nc(SCc2cc(F)cc(C(F)(F)F)c2)nc(SCc2ccc3nc(Cl)ccc3c2)[nH]1	TOP2A (Homo sapiens, UniProt P11388)	decatenation		125 µM, replicate 1		decatenated DNA	0%
CSCCC(=O)N(C)CC1CCCN(CCc2cccc(C(F)(F)F)c2)C1 (stereo not shown)	Trypanosoma cruzi	reporter translation, Renilla luciferase mRNA translation	cell-free extract	40 µM	baseline: DMSO	inhibition	-2.9%
CNCC[C@H](Oc1cccc2ccccc12)c1cccs1	Voltage-dependent P/Q-type calcium channel subunit alpha-1A	ion current, antagonist	HEK293	3 µM		inhibition	13%
O=C(O)C1CCCNC1 (stereo not shown)	SLC6A6 (Homo sapiens, UniProt P31641, Y138A)	binding, microscale thermophoresis		125 µM, room temperature, with: 50 nM labelled protein	higher = more binding	normalised MST signal	0.969
Nc1c(Br)cc(Br)cc1CN[C@H]1CC[C@H](O)CC1	Voltage-dependent P/Q-type calcium channel subunit alpha-1A	ion current, antagonist	HEK293	3 µM		inhibition	36%
COc1cccc2c(Nc3ccc4[nH]c(C(=O)N/N=C/c5ccc(SC)cc5)cc4c3)cc(C)nc12	Vitamin D3 receptor (VDR, Homo sapiens, UniProt P11473)	reporter gene, Gal4 hybrid reporter		3 µM	baseline: vehicle	activation	1.12 fold
